{"data": "Results of several laboratories", "note": "A part holds a random share of what one study measured."}
{"data": "Sample 1", "target": "Ras GTPase-activating protein-binding protein 1, RRM domain (G3BP1, Homo sapiens, UniProt Q13283)", "method": "RNA Bind-n-Seq", "molecule type": "RNA", "matrix": "in vitro", "concentration": "1 µM", "notes": "whole 134-nt RNA, ends assumed", "added": "150 mM KCl", "relative to": "input library", "reading": "higher = stronger binding", "shared flanks, not repeated": "GGGAGUUCUACAGUCCGACGAUC … UGGAAUUCUCGGGUGUCAAGG", "UniProt Q13283, sequence (whole entry, looked up)": "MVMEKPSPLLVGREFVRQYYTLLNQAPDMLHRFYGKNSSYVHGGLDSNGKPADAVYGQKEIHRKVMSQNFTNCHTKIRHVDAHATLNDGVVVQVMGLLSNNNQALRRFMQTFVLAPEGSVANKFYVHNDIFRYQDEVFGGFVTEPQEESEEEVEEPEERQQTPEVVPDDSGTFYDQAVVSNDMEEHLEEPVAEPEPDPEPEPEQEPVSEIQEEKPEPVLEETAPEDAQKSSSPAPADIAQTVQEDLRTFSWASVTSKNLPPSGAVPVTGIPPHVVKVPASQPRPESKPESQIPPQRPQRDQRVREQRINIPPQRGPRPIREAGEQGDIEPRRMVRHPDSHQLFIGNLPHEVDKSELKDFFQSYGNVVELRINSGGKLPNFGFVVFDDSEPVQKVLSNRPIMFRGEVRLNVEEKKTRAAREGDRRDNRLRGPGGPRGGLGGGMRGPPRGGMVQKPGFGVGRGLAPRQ"}
{"Sequence": "ACCAUGCAGGUGGGCAUCUUUGGGAAGUGGGGCAAGGGGGGGACAGGGAGGGGGGUAACACUUUGGGAACAGGUGGUCCCAGGUCGUUUC", "log2 enrichment": 0.964}
{"Sequence": "CCUCAAGUCCUGUGCUACACAUCGUAUGUACCGAAUCGGGCGGCGGGCGGGGAAAGUAUUAUGUUACGCCGUUCGGAUCUGCACUUCCAG", "log2 enrichment": -0.085}
{"Sequence": "GUCCUGUGCUACACAUCGUAUGUACCGAAUCGGGAAAAAAAGGGAGGGAAAAAAAGGGAAAGUAUUAUGUUACGCCGUUCGGAUCUGCAC", "log2 enrichment": 0.3}
{"Sequence": "AGUCCUGUGCUACACAUCGUAUGUACCGAAUCGGAAAAAAAGGUUUGGUUUUUUUGGAAAGUAUUAUGUUACGCCGUUCGGAUCUGCACU", "log2 enrichment": -0.326}
{"Sequence": "ACCAUGCAAAUGGGCAUCUUUGGGAAGUGGGGCAAGGGGGGGAUAGGGAGGGGGGUAACACUUUGGGAACAGGUGGUCCCAGGUCGUUUC", "log2 enrichment": -0.356}
{"Sequence": "GUCCUGUGCUACACAUCGUAUGUACCGAAUCGGCCCCCGGGGCCCCCGGGCCCCCGGGAAAGUAUUAUGUUACGCCGUUCGGAUCUGCAC", "log2 enrichment": -0.428}
{"Sequence": "UGGCCCUGGUGGCAUGCGGGGAGGAAGAGGUGGCCUCAUGGAUCGUGGUGGUCCCGGUGGAAAGUUCAGAGGUGGCCGUGGUGGAGACAG", "log2 enrichment": 0.654}
{"Sequence": "CACAGACCACACGCACCCACACAGACACAGAGGGAAGGGGUUGGGAUGGGGACAGGGUGCACAGCAGGGCGGGGUAGGACCCCAGCCCCU", "log2 enrichment": -0.234}
{"Sequence": "UAACUUUAGAGGAGGAUCUGAUGGAUAUGGCAGUGGACGUGGAUUUGGGGUUGGCUAUAAUGGGUAUGGAGGAGGACCUGGAGGUGGCAA", "log2 enrichment": -0.604}
{"data": "Sample 2", "target": "RING finger protein unkempt homolog, zinc fingers 1-6, GST-SBP tag (UNK, Homo sapiens, UniProt Q9C0B0, residues 30-357)", "method": "RNA Bind-n-Seq", "molecule type": "RNA", "matrix": "in vitro", "concentration": "not given", "notes": "RNA with constant flanks, ends assumed", "relative to": "input RNA pool", "reading": "higher = stronger binding", "shared flanks, not repeated": "GGGAGUUCUACAGUCCGACGAUC … CAACAGAGGAUUGAGCAUCA", "UniProt Q9C0B0, sequence (30-357, looked up)": "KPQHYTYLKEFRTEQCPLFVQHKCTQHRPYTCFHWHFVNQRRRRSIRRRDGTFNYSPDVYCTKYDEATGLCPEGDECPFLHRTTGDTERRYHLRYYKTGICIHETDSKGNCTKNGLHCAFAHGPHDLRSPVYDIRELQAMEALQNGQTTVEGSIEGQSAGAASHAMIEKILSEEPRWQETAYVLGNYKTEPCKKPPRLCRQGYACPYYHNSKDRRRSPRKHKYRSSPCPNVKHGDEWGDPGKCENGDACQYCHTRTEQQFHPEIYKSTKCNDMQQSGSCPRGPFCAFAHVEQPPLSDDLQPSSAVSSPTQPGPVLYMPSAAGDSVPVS"}
{"Sequence": "CUGCAUUAUUUGACCAGAGUUGAAGUGACAGAAUUUGAAGACAUUAAAUCAGGUUACAGAACCGAUUUUUAUUUUGAUGAAAAUCCUUACUUUGAAAAUAAAGUUCUCUCCAAAGAAUUU", "bound/input enrichment": "0.132 ratio"}
{"Sequence": "GAGUUCCAUCUUUUCUCUAGGAAGGUAGAAGAGAUUUUGAAGGAGAAGAAUGUUUCAUAUGUCCGUGCAAUUUCCACACCUAUCUUUUCAGCACAAGAGAAGAUGAAUCGCCUUUCUGAG", "bound/input enrichment": "0.134 ratio"}
{"Sequence": "AAAUAACAUUGGAAAAUUGGGAGAAGUCUCCUUGGUUUGGAAAAAAAGGACUCUUCAACCCCGCUCACUUUCUUAUCCGGACUGGGAUAUUAAAUAUACGACACAUCCAGGAGUUUAUUG", "bound/input enrichment": "0.25 ratio"}
{"Sequence": "GAGAACUUGCAUGAUGUUGCCUACAAGAAUGCCUUGGCUAAUCCUUUGUACUGUCCUGACUACCGGAUGGGGAAGAUAACAUCAGAGGAAUUACAUUACUUUGUUCAGAACCACUUCACA", "bound/input enrichment": "0.128 ratio"}
{"Sequence": "GAUGGCACAGCUUCUGGAUCUAUCUGUUGAUGAGUCCGAAGCCUUUCUCUCAAAUCCCGCCGUUAACAAGACCAUCUUUGCUAAAGUAGACAGAUUAGCAGGAAUUAUCAACUUCCAGAG", "bound/input enrichment": "0.311 ratio"}
{"Sequence": "AGAAACGGUGAACUCCCCAGCUAUUUAUAAAUUUCAGAGUCGUCGAAAACGUUGACGUGUUACCGAUAAGCCUUGUCAUUCUGUAUCAAAAAUCUGUUGUCGUUUUCUAGUAACUUCAAA", "bound/input enrichment": "0.782 ratio"}
{"Sequence": "ACAGAAAAUAGCAGCGCAGUGUUACUCCAGUGGCACGAAAAGGCCUUAGCAGUAGGAGGACCCGGCUCCAUUAUAAGAGUUCUUACAGCAAGAAAGACUGUUUAAAAAAAAUAAAAAGAC", "bound/input enrichment": "0.47 ratio"}
{"Sequence": "GAAACAUUUAAAUUUAAAGAAGCUGUUGUUCUAGGAAGUACGGACUUUCUAGAAGAUGAUACCGAGAAAAUUGUAGAAGAACUGGGGAAAGAGUAUAAGGGCAACGCCUACCAUCUGAUG", "bound/input enrichment": "0.636 ratio"}
{"data": "Sample 3", "target": "Interferon regulatory factor 5, full length, phosphomimetic (IRF5, Homo sapiens, UniProt Q13568-2, residues 1-514, K96S/S451D/S453D/S456D/S462D)", "method": "protein-binding microarray", "molecule type": "double-stranded DNA, one strand shown", "matrix": "in vitro", "concentration": "250 nM", "notes": "60-bp whole probe", "added": "salmon DNA 0.4 mg/ml", "relative to": "random background probes", "reading": "higher = stronger binding", "shared flanks, not repeated": "GCCTAGCAC … GTCTTGATTCGCTTGACGCTGCTG"}
{"Sequence": "AGAGTCACCCATCTCAACAAGTGCTAG", "log fluorescence [z-score]": -0.297}
{"Sequence": "TCAGTTTCCATTTTCTGACTGTGCTAG", "log fluorescence [z-score]": 2.6}
{"Sequence": "TTAGGTATCGAGACTGGGTTAGTGCTA", "log fluorescence [z-score]": 1.9}
{"Sequence": "GACTGTATCGGGACTGGGGACGTGCTA", "log fluorescence [z-score]": 1.19}
{"Sequence": "TCAGTCACCCATCTCAAACTGTGCTAG", "log fluorescence [z-score]": 0.156}
{"Sequence": "TTAGGTATCGGGTACCGGTTAGTGCTA", "log fluorescence [z-score]": 4.01}
{"Sequence": "TTAGGTTTCGGTCTCGTTTAGTGCTAG", "log fluorescence [z-score]": 10.3}
{"Sequence": "GACGGTCTCGGTCTCGGTACGTGCTAG", "log fluorescence [z-score]": 0.378}
{"Sequence": "GACGATTTCGGGTTTAGAGACGTGCTA", "log fluorescence [z-score]": 3.09}
{"Sequence": "TTAGATTTCAGTATCGACTAGTGCTAG", "log fluorescence [z-score]": 6.21}
{"Sequence": "GACGATTTCAGTATCGCGACGTGCTAG", "log fluorescence [z-score]": 1.89}
{"Sequence": "GCCGGACTGCTTATCCTGACGTGCTAG", "log fluorescence [z-score]": -0.555}
{"Sequence": "TTAGGACTGGACTAGCGGTTAGTGCTA", "log fluorescence [z-score]": -0.293}
{"Sequence": "TCAATCCTCTCACCTCAGACTGTGCTA", "log fluorescence [z-score]": 0.00334}
{"Sequence": "GTAGTTTTCATTATTGTTTCGTGCTAG", "log fluorescence [z-score]": 3.94}
{"Sequence": "TTAGAACTGGCGACTGGATTAGTGCTA", "log fluorescence [z-score]": -0.166}
{"Sequence": "TTGGGTATCGGACTGGGTTAGTGCTAG", "log fluorescence [z-score]": 1.19}
{"Sequence": "GACGGTCTCCTACTGATGACGTGCTAG", "log fluorescence [z-score]": -0.389}
{"Sequence": "GTAGGACTGGACACTGGGTTAGTGCTA", "log fluorescence [z-score]": -0.958}
{"data": "Sample 4", "target": "RNA binding protein fox-1 homolog 2, RRM domain, GST-SBP tag (RBFOX2, Homo sapiens, UniProt O43251-10, residues 100-194)", "method": "RNA Bind-n-Seq", "molecule type": "RNA", "matrix": "in vitro", "concentration": "365 nM", "notes": "natural RNA segment, single round, ends assumed", "relative to": "no-protein control", "reading": "higher = stronger binding", "shared flanks, not repeated": "GGGAGUUCUACAGUCCGACGAUC … UGGAAUUCUCGGGUGCCAA"}
{"Sequence": "UACAGGUGGGAUUUCAUGGGUCCAUGUGUUACAAAAAUAAGAAUUGGAGCAUUAACUUGAAAUUGUCUUCAAGGACUUGCUAUGUGCACUUCUUCACACCGGUACAUUCU", "RBNS enrichment (R)": 0.381}
{"Sequence": "GUAGGGAGGACAGACUGUCACUUGCUGUUACAGGCACAGGUGAUUAAAAUGCUAAAUAUUGCAAAUUUAAGCUUUGUCAGUAUAUGGAAAAGUUGAAGGGAAAAUACUGG", "RBNS enrichment (R)": 0.459}
{"Sequence": "UAGCUGGCCUGGAAUUCACUAUGUAGAGCAGACUGGUCUUGAACUCACAGUCACAGAGAUCACCUGCCCCCUCUGCCUUUCAAGUACAGGGAUUAAAGGCAUGCAUCACC", "RBNS enrichment (R)": 0.486}
{"Sequence": "GGGUUCCAGGUAAGAGAAACAGAGACCCCUACCCCAGCUGUUUACUACCUGGUGGGCUGGUUGAGGAUGGGAGAGAGUUGGCUGUGUGCCAUGUUCAGAUGUAUGGUGGA", "RBNS enrichment (R)": 0.544}
{"Sequence": "CCAGAUUUAAAUCCAGCUGAGGCUCCCUUUGUUUUCAGUUCCAUGUAACAAUCUGGAAGGAAACUUCACGGACAGGAAGACUGCUGGAGAAGAGAAGCGUGUUAGCCCAU", "RBNS enrichment (R)": 0.379}
{"Sequence": "CUUUAAGUCAGUUGGUUUUUAUUAGCUGCUUGGUAUGCAGUAACUUGGGUGGAGGCAAAACACUAAUAAAAGGGCUAAAAAGGAAAAUGAUGCUUUUCUUCUAUAUUCUU", "RBNS enrichment (R)": 0.612}
{"Sequence": "UGUUGGGUCACCGGCUGGACCUGCUGCAGCCUGCAGAGCCACAGUCAGCCUGCCCACAUGCCACCGAGCAAACGCAUCUUGCUUUUCACAUCUCUCCUCCUACAGCCUUA", "RBNS enrichment (R)": 0.57}
{"Sequence": "GCUCAGACACCAUUACUUUUGUGAACGCUUCUGCCACAUCUUGUCUUCCCCAAAAUUGAUCACUCCGCCUUCUCCUGGGCUCCCGUAGCACACUAUAACAUCUGCUGGAG", "RBNS enrichment (R)": 0.489}
{"note": "Some of these lines once more (sample 3):"}
{"Sequence": "GACGATTTCAGTATCGCGACGTGCTAG", "log fluorescence [z-score]": 1.89}
{"Sequence": "GCCGGACTGCTTATCCTGACGTGCTAG", "log fluorescence [z-score]": -0.555}
{"Sequence": "TTAGGACTGGACTAGCGGTTAGTGCTA", "log fluorescence [z-score]": -0.293}
{"Sequence": "TCAATCCTCTCACCTCAGACTGTGCTA", "log fluorescence [z-score]": 0.00334}
